Experimental data from different studies.
± marks the error that the study gave.

Compound	test system	conditions	how to read	tissue uptake [%ID/g]
N=C(N)NCc1ccc(C(=O)NCCCC[C@H](NC(=O)CCCCCCC(=O)NCCCC[C@H](NC(=O)N[C@@H](CCC(=O)O)C(=O)O)C(=O)O)C(=O)O)cc1[131I]	SCID mouse, PC-3 xenografts, heart	21 h	–	0.02 ± 0.01
COc1ccc(C)cc1NC(=O)OC1CC2CCCC(C1)N2Cc1ccc(CC[18F])cc1 (centres unmarked)	BALB/c mice, EMT6 tumour, brain	5 min	–	2.65 ± 0.24
C=Cc1cc(O)cc2nc(-c3ccc(O)c([76Br])c3)oc12	female C57BL/6 mouse, kidney	3 h, high dose	–	0.82 ± 0.16
CN(C)c1ccc(C(=O)NCCCCN2CCN(c3ccccc3O[11CH3])CC2)cc1	male Sprague Dawley rat, lung	iv, 5 min	reference: untreated	1.96 ± 0.341
N=C(N)NCCC[C@@H]1NC(=O)[C@H](CCCCNC(=O)CC[C@H](NC(=O)CCOCCOCCOCCOCCNC(=O)CC[C@H](NC(=O)CN2CCN(CC(=O)O)CCN(CC(=O)O)CCN(CC(=O)O)CC2)C(=O)NCCOCCOCCOCCOCCC(=O)N[C@@H](CCC(=O)NCCCC[C@@H]2NC(=O)[C@@H](Cc3ccccc3)NC(=O)[C@H](CC(=O)O)NC(=O)CNC(=O)[C@H](CCCNC(=N)N)NC2=O)C(=O)NCCCC[C@@H]2NC(=O)[C@@H](Cc3ccccc3)NC(=O)[C@H](CC(=O)O)NC(=O)CNC(=O)[C@H](CCCNC(=N)N)NC2=O)C(=O)NCCCC[C@@H]2NC(=O)[C@@H](Cc3ccccc3)NC(=O)[C@H](CC(=O)O)NC(=O)CNC(=O)[C@H](CCCNC(=N)N)NC2=O)NC(=O)[C@@H](Cc2ccccc2)NC(=O)[C@H](CC(=O)O)NC(=O)CNC1=O [indium-111 labelled]	female athymic nude mice, muscle	intravenous, 3 µCi, 0.5 h, U-87 MG glioma xenograft	–	0.93 ± 0.29
CN[C@](C)(C[18F])C(=O)O	SCID mouse MDA-MB-468 xenograft, brain	15 min, post injection	–	0.4 ± 0.1
O=C(O)CC[C@H](NC(=O)O[C@@H](CCCCNC(=O)c1ccc([18F])cc1)C(=O)O)C(=O)O	mouse, PC-3 PIP/flu xenografts, muscle	180 min	–	0.03 ± 0.01
N=C(N)NCc1ccc(C(=O)NCCCC[C@H](NC(=O)N[C@@H](CCC(=O)O)C(=O)O)C(=O)O)cc1[131I]	SCID mouse, PC-3 xenografts, heart	21 h	–	0.01
N=C(N)NCCC[C@@H]1NC(=O)[C@H](CCCCNC(=O)CCOCCOCCOCCOCCNC(=O)CC[C@H](NC(=O)CCOCCOCCOCCOCCNC(=O)CC[C@H](NC(=O)CN2CCN(CC(=O)O)CCN(CC(=O)O)CCN(CC(=O)O)CC2)C(=O)NCCOCCOCCOCCOCCC(=O)N[C@@H](CCC(=O)NCCOCCOCCOCCOCCC(=O)NCCCC[C@@H]2NC(=O)[C@@H](Cc3ccccc3)NC(=O)[C@H](CC(=O)O)NC(=O)CNC(=O)[C@H](CCCNC(=N)N)NC2=O)C(=O)NCCOCCOCCOCCOCCC(=O)NCCCC[C@@H]2NC(=O)[C@@H](Cc3ccccc3)NC(=O)[C@H](CC(=O)O)NC(=O)CNC(=O)[C@H](CCCNC(=N)N)NC2=O)C(=O)NCCOCCOCCOCCOCCC(=O)NCCCC[C@@H]2NC(=O)[C@@H](Cc3ccccc3)NC(=O)[C@H](CC(=O)O)NC(=O)CNC(=O)[C@H](CCCNC(=N)N)NC2=O)NC(=O)[C@@H](Cc2ccccc2)NC(=O)[C@H](CC(=O)O)NC(=O)CNC1=O [indium-111 labelled]	female athymic nude mice, lungs	intravenous, 3 µCi, 4 h, U-87 MG glioma xenograft	–	2.18 ± 0.26
N=C(N)NCc1ccc(C(=O)NCCCC[C@H](NC(=O)CCCCCCC(=O)NCCCC[C@H](NC(=O)N[C@@H](CCC(=O)O)C(=O)O)C(=O)O)C(=O)O)cc1[211At]	SCID mouse, PC-3 xenografts, muscle	21 h	–	0.22 ± 0.06
CCNc1cc2[o+]c3cc(NCC)c(C)cc3c(-c3ccccc3C(=O)OCCOCC[18F])c2cc1C	rat, bone	15 min	–	0.3 ± 0.08

Some of these lines once more:
Compound	test system	conditions	how to read	tissue uptake [%ID/g]
CN[C@](C)(C[18F])C(=O)O	SCID mouse MDA-MB-468 xenograft, brain	15 min, post injection	–	0.4 ± 0.1
CN(C)c1ccc(C(=O)NCCCCN2CCN(c3ccccc3O[11CH3])CC2)cc1	male Sprague Dawley rat, lung	iv, 5 min	reference: untreated	1.96 ± 0.341
